Assay results gathered from unrelated publications.
Protocols differ between the studies behind these lines. ± gives the spread as reported.
Target: Amine oxidase [flavin-containing] A (MAOA, Homo sapiens, UniProt P21397)
Chain of UniProt P21397 (whole entry, looked up): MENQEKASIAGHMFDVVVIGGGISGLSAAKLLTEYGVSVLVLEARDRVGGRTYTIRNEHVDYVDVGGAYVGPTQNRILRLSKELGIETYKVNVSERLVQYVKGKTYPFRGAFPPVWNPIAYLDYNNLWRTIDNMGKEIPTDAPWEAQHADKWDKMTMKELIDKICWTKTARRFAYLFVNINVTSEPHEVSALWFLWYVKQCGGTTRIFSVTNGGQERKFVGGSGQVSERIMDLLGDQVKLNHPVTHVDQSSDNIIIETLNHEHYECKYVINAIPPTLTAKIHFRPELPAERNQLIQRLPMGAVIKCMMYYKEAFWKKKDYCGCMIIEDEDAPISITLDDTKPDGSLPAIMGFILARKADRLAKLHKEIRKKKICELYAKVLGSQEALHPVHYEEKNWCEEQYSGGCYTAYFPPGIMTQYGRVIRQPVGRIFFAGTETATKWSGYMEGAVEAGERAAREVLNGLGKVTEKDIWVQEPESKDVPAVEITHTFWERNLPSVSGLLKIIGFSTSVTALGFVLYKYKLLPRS

SMILES	test	system	conditions	how to read	quantity	result
NCc1ccc(Cl)cc1	substrate	–	pH 9.0, α,α-protio substrate	–	kcat	0.65 ± 0.00817 s⁻¹
C#CCCCCNC(=O)c1ccc(N(C(=O)C=C)c2ccc(Br)cc2)cc1	mass spectrometry profiling	H460 cell lysate	100 µM over 10 µM, UniProt P21397	relative to: high over low concentration	reactivity ratio	1.85
CC(C)c1ccc(/C=C/C(=O)c2ccc(O)cc2)cc1	enzyme activity, inhibitor	–	10 µM	–	remaining activity	11.9%
COc1ncc2nc(C)n(Cc3ncc(S(N)(=O)=O)cc3F)c2c1-c1ccccc1	enzyme activity, inhibitor	–	10 µM, safety panel	–	inhibition	17%
CC(C)c1ccc(/C=C/C(=O)c2ccc(Br)s2)cc1	enzyme activity, inhibitor	–	about 2 × IC50, 30 min preincubation, without dialysis	–	remaining activity	29.1%
Cn1nnnc1Sc1c2c(c(C#N)c3nc4ccccc4n13)CCCC2	–	–	100 µM	–	remaining activity	93 ± 7.4%
COc1ccc(C#CC2=C[C@H]3C[C@@]4(OC(=O)C=C24)[C@H]2CC[C@H](C(OC)OC)N32)cc1	cell-free assay, inhibitor	–	10 µM	–	inhibition	3%
Cc1ccc(CN)cc1	substrate	–	pH 9.0, α,α-protio substrate	–	kcat	0.4167 ± 0.004 s⁻¹
CC(C)c1ccc(/C=C/C(=O)c2ccc(S(C)(=O)=O)cc2)cc1	enzyme activity, inhibitor	–	10 µM	–	remaining activity	90.3%
